Results of several laboratories.
Each line is one published result; not all experiments were run side by side. “And” joins repeats or separate records; there may be more than shown. ± gives the spread as reported.
UniProt P10632, sequence (whole entry, looked up): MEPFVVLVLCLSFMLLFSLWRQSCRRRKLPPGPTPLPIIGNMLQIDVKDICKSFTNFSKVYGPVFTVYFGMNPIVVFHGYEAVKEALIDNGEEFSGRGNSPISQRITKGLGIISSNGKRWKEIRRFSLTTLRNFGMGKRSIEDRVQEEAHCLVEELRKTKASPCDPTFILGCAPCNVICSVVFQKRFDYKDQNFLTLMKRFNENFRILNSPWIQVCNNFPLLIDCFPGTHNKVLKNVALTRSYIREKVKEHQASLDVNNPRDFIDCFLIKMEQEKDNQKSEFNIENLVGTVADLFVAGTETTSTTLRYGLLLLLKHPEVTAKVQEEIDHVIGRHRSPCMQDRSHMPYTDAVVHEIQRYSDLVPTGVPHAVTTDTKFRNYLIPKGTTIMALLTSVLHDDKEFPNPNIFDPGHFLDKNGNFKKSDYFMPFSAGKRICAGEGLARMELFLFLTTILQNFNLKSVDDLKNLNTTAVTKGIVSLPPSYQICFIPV

SMILES	target or system	test	system	setting	how to read	endpoint	result
CC(C)C[C@H](NC(=O)[C@@H](CCCCNC(=O)[C@@H](Cc1ccccc1)NC(=O)CCCCCNC(=O)CN1CCN(CC(=O)O)CCN(CC(=O)O)CCN(CC(=O)O)CC1)NC(=O)[C@H](Cc1ccc(O)cc1)NC(=O)[C@H](CO)NC(=O)[C@H](Cc1c[nH]c2ccccc12)NC(=O)[C@H](Cc1c[nH]cn1)NC(=O)[C@@H]1CCC(=O)N1)C(=O)N[C@@H](CCCNC(=N)N)C(=O)N1CCC[C@H]1C(=O)NCC(N)=O [indium-111 labelled]	–	–	female athymic nude mice, bone	intravenous, 0.037 MBq, 2 h	–	tissue uptake	0.04 ± 0.01 %ID/g
CNS(=O)(=O)Nc1nccc(Cc2c(C)c3ccc(Oc4ncccc4F)cc3oc2=O)c1F	F-36P	cell viability	–	7 days	–	IC50	53.8 nM
O=C(Nc1ccc([N+](=O)[O-])cc1Cl)c1cc(Cl)ccc1O	human alphaherpesvirus 1	–	K26 GFP, 3D adult human skin submerged	48 h	–	IC50	180 nM
C=C(NC(=O)c1csc(-c2nc3c(cc2O)-c2nc(cs2)C(=O)NC(C(C)O)C(=O)NC(=C(C)OC)c2nc(cs2)C(=O)NC2c4nc(cs4)C(=O)NC(COC(=O)c4c5c6c(cccc6n4O)COC(=O)C(OC4CC(C)(O)C(N(C)C)C(C)O4)C2OC5)c2nc-3cs2)n1)C(N)=O (stereo not drawn)	–	–	ICR mice, Streptococcus pneumoniae ATCC 49169 infected, immunocompromised, blood	intravenous, 8 mg/kg/day three times daily	–	AUC(0-inf)	882 ng·h/mL
CC(C)OCCOCc1ccc(OCC(O)CN(N=O)C(C)C)cc1 (stereo not drawn)	Salmonella typhimurium	Ames test	TA1537	5 µg/plate, without metabolic activation	baseline: solvent control	revertant fold increase	1 fold
COC1C=COC2(C)Oc3c(C)c(O)c4c(c3C2=O)C2=NC3(CCN(CC(C)C)CC3)NC2=C(NC(=O)C(C)=CC=CC(C)C(O)C(C)C(O)C(C)C(OC(=O)Nc2cccnn2)C1C)C4=O (stereo not drawn)	Mycobacteroides abscessus	bacterial growth	subsp. abscessus M9 clinical isolate	–	–	IC50	12 nM
Nc1nc(-c2ccc(Cl)cc2)nc2[nH]nc(Nc3cccc(F)c3)c12	Human rhinovirus 8	cytopathic effect, inhibitor	HeLa	–	–	IC50	6310 nM
CC1(C)CC(=O)c2c(C(F)(F)F)nn(-c3ccc(C(N)=O)c(N[C@H]4CC[C@H](O)CC4)c3)c2C1	human alphaherpesvirus 1	–	K26 GFP, 3D adult human skin submerged	48 h	–	IC50	90 nM
O=Cc1c[nH]c2ccccc12	Bifidobacterium longum	microbial growth, absorbance	–	–	–	IC50	> 50000 nM
Cc1cccc(Nc2n[nH]c3nc(-c4ccc(F)cc4F)nc(N)c23)c1	Human rhinovirus 8	cytopathic effect, inhibitor	HeLa	–	–	IC50	5590 nM
Nc1ccn([C@@H]2O[C@H](CO)[C@@H](O)C2(F)F)c(=O)n1	human alphaherpesvirus 1	viral replication	K26 GFP-expressing, 3D neonatal skin, air-liquid interface	48 h	–	IC50	170 ± 130 nM
C=CC(=O)Nc1cccc(Cn2ncc3cnc(Nc4cnn(CCOC)c4)nc32)c1	CSNK1G3 human	binding, KINOMEscan	–	100 nM	lower = stronger binding	percent of control	100%
CC(C)CC(c1c[nH]c2ccccc12)c1c[nH]c2ccccc12	Bifidobacterium longum	microbial growth, absorbance	–	–	–	IC50	> 50000 nM
Nc1nc(-c2ccccc2)nc2[nH]nc(Nc3ccc(F)c(Cl)c3)c12	Human rhinovirus 8	cytopathic effect, inhibitor	HeLa	–	–	IC50	123000 nM
COC1C=COC2(C)Oc3c(C)c(O)c4c(c3C2=O)C2=NC3(CCN(CC(C)C)CC3)NC2=C(NC(=O)C(C)=CC=CC(C)C(O)C(C)C(O)C(C)C(OC(=O)Nc2cscn2)C1C)C4=O (stereo not drawn)	Mycobacteroides abscessus	intracellular growth, Hill fit	THP-1 derived macrophages, ATCC 19977	–	–	IC50	14 nM
Cc1ncsc1-c1ccc(C(C)NC(=O)C2CC(O)CN2C(=O)C(NC(=O)CCCCCCCCCCN2CCCC(Nc3ncc(Cl)c(Nc4ccccc4S(=O)(=O)C(C)C)n3)C2)C(C)(C)C)cc1 (stereo not drawn)	22Rv1	RNA-seq, measured: TDP1 mRNA	–	concentration not given	baseline: DMSO	log2 fold change	-1.03
CC(C)C[C@H](NC(=O)[C@H](Cc1ccc(O)cc1)NC(=O)[C@@H](CCCNC(=N)N)NC(=O)[C@@H](CO)NC(=O)[C@H](Cc1ccccc1)NC(=O)[C@H](CC1CCCCC1)NC(=O)[C@H](CC(=O)O)NC(=O)CN1CCN(CC(=O)O)CCN(CC(=O)O)CCN(CC(=O)O)CC1)C(=O)N[C@@H](Cc1c[nH]c2ccccc12)C(=O)N[C@@H](CO)C(=O)O [copper-64 labelled]	–	–	human, pancreas	concentration not given, 1 h	–	activity concentration	5630 Bq/mL and 7550 Bq/mL and 7380 Bq/mL and 6180 Bq/mL and 7230 Bq/mL and 4570 Bq/mL

SMILES	target or system	test	system	setting	how to read	endpoint	result
COC1CN([C@H]2CC[C@H]([C@@]3(C)Oc4c(Cl)cc(C(=O)NCc5c(SC)cc(C)[nH]c5=O)c(C)c4O3)CC2)C1	–	RNA-seq, measured: TMTC1 mouse homolog	mouse, HT-1376 xenograft, whole blood	dose not given	baseline: vehicle	log2 fold change	2.15
COc1ccc(Nc2n[nH]c3nc(-c4ccccc4)nc(N)c23)c(OC)c1	Human rhinovirus 8	cytopathic effect, inhibitor	HeLa	–	–	IC50	111000 nM
Cc1nc(N(C)C(=O)Cc2ccc(-c3ccccn3)cc2)sc1S(N)(=O)=O	human alphaherpesvirus 1	–	K26 GFP, 3D adult human skin air-liquid interface	48 h	–	IC50	250 nM
CC(c1c[nH]c2ccccc12)c1c[nH]c2ccccc12	Bifidobacterium longum	microbial growth, absorbance	–	–	–	IC50	> 50000 nM
CNCc1ccc2c(c1)N(C(=O)OCc1c(F)c(F)c(F)c(F)c1F)[C@H](CNC(=N)N)[C@H]2NC(=O)C(=O)Nc1ccc(Cl)c(F)c1	HIV-1	viral infection	TZM-bl, CRF02_AG 235-47 Env pseudovirus	–	–	IC50	583 nM
Nc1ncc(-c2cc(-c3cnn(CC(F)(F)F)c3)ncc2F)nc1C(=O)NC1CNCC(F)C1 (stereo not drawn)	ASK1	KINOMEscan	–	1 µM	baseline: DMSO control	remaining binding	100%
O=C1Nc2ccccc2C1(c1c[nH]c2ccccc12)c1c[nH]c2ccccc12	Bifidobacterium longum	microbial growth, absorbance	–	–	–	IC50	23000 nM
O=C(/C=C\n1cnc(-c2cc(C(F)(F)F)cc(C(F)(F)F)c2)n1)NNc1ccccn1	human alphaherpesvirus 1	–	K26 GFP, 3D adult human skin submerged	48 h	–	IC50	520 nM
c1ccc2c([C+](c3c[nH]c4ccccc34)c3c[nH]c4ccccc34)c[nH]c2c1	Bifidobacterium longum	microbial growth, absorbance	–	–	–	IC50	> 50000 nM
CCN(CC)CC#CCNc1ccnc2cc(Cl)ccc12	Plasmodium falciparum	–	IPC_4912	–	–	IC50	48.6 nM
CCOC(=O)/C=C/[C@H](C[C@@H]1CCNC1=O)NC(=O)[C@@H](CC(=O)[C@@H](NC(=O)c1cc(C)on1)C(C)C)Cc1ccc(F)cc1	rhinovirus C41a-mGL	viral replication, high-content imaging	–	–	–	IC50	10 nM
CNC(=O)C1CCCN(C(=O)C2CC3CCC2N3C(=O)[C@@H]2C[C@@H](O)CN2C(=O)NCc2cccc(Cl)c2F)C1 (mixture of isomers)	Cytochrome P450 2C8 (CYP2C8, Homo sapiens, UniProt P10632)	preincubation with NADPH	human	1.85 µM	baseline: negative control	remaining activity	99.1% and 94.5% and 86.4%
Cc1ccc(-c2nc(N)c3c(Nc4ccc(Cl)cc4)n[nH]c3n2)cc1	Human rhinovirus 8	cytopathic effect, inhibitor	HeLa	–	–	IC50	1140 nM
CCCC[C@H](NC(=O)COCCOCCNC(=O)CN1CCN(CC(=O)O)CCN(CC(=O)O)CC1)C(=O)N[C@H]1CC(=O)NCCCC[C@@H](C(N)=O)NC(=O)[C@H](Cc2c[nH]c3ccccc23)NC(=O)[C@H](CCCNC(=N)N)NC(=O)[C@@H](Cc2ccccc2)NC(=O)[C@H](Cc2c[nH]cn2)NC1=O [technetium-99m labelled]	–	–	C57 mouse, bone	intravenous, 0.037 MBq, 2 h	–	tissue uptake	0.24 ± 0.17 %ID/g
COc1ccc(-c2nc(N3CCOCC3)c3sc(CN(C)c4ncc(C(=O)NO)cn4)cc3n2)cn1	human alphaherpesvirus 1	–	K26 GFP, 3D adult human skin submerged	48 h	–	IC50	370 nM
Cc1ccc(-c2nc(N)c3c(Nc4ccc(F)cc4)n[nH]c3n2)cc1F	Human rhinovirus 8	cytopathic effect, inhibitor	HeLa	–	–	IC50	1700 nM

For quick reference, copied from above:
SMILES	target or system	test	system	setting	how to read	endpoint	result
Cc1ncsc1-c1ccc(C(C)NC(=O)C2CC(O)CN2C(=O)C(NC(=O)CCCCCCCCCCN2CCCC(Nc3ncc(Cl)c(Nc4ccccc4S(=O)(=O)C(C)C)n3)C2)C(C)(C)C)cc1 (stereo not drawn)	22Rv1	RNA-seq, measured: TDP1 mRNA	–	concentration not given	baseline: DMSO	log2 fold change	-1.03
CNCc1ccc2c(c1)N(C(=O)OCc1c(F)c(F)c(F)c(F)c1F)[C@H](CNC(=N)N)[C@H]2NC(=O)C(=O)Nc1ccc(Cl)c(F)c1	HIV-1	viral infection	TZM-bl, CRF02_AG 235-47 Env pseudovirus	–	–	IC50	583 nM
